Experimental data of several laboratories.
Numbered parts are unrelated; each lists some results of a single study.

Study 1
Target: Fragile X messenger ribonucleoprotein 1, C-terminal low-complexity region (Fmr1, Mus musculus, UniProt P35922)
Method: RNA Bind-n-Seq
Molecule type: RNA
Medium: in vitro
Tested at: 200 nM
Setting: whole 134-nt RNA, ends assumed
With: 150 mM KCl
Reference: input library
Direction: higher = stronger binding
Oligonucleotide | log2 enrichment
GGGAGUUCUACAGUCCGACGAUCUUCCCUGGUGUGAUUCCGUCCUGCGCGGUUGUUCUCUGGAGCAGCGUUCUUUUAUCUCCGUCCGCCUUCUCUCCUACCUAAGUGCGUGCCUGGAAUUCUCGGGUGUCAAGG | 0.545
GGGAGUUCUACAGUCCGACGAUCACCUUCACGGCAUGGUGCAACUCCCACCUGCGGAAGGCAGGCACACAGAUCGAGAACAUUGAUGAGGACUUCCGAGACGGGCUCAAGCUCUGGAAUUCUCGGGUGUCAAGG | 0.946
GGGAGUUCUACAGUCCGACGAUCACCAUGCAGGUGGGCAUCUUUGGGAAGUGGGGCAAGGGGGGGAUAGGGAGGGGGGUAACACUUUGGGAACAGAUGGUCCCAGGUCGUUUCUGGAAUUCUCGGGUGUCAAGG | 0.682
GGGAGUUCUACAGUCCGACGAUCCAAGUCCUGUGCUACACAUCGUAUGUACCGAAUCGGGCCCGGGGCCCGGCCCGGGGAAAGUAUUAUGUUACGCCGUUCGGAUCUGCACUUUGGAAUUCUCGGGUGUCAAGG | -0.909
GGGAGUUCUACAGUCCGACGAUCCACAGACAACACGCACCCACACAGACACAGAGGGAAGGGGUUGGGAUGGGGACAGGGUGCACAGCAGGGCGGGGUAGGACCCUAGCCCCUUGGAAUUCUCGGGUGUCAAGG | 1.27
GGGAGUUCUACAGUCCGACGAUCACCAUGCAGGUUGGCAUCUUUGGGAAGUGGGGCAAGGGGGGGAUAGGGAGGGGGGUAACACUUUGGGAACAGGUGGUCCCAGGUCGUUUCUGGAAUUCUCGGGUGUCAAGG | 1.1
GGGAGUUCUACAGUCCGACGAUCAGUCCUGUGCUACACAUCGUAUGUACCGAAUCGGGAAAGGGAAAAAAAGGGAAAGGGAAAGUAUUAUGUUACGCCGUUCGGAUCUGCACUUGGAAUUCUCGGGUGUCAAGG | -0.0773
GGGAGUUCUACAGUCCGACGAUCCACAGACAACACGCACCCACACAGACACAGAGGGAAGGGGUUGGGAUGGGGACAGGGUGCACAGGAGGGCGGGGUAGGACCCCAGCCCCUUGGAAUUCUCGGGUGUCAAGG | 1.15
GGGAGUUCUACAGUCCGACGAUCGCAGGAAGUAAAAACAAAUGGAAAUGCUUCGGAUAGUGGCAGGGGUGGGGGUUACUAAGGAAAGGGUGGGAUGGGAGUGGGUAAAGAGUUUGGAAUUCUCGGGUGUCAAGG | 0.118

Study 2
Target: TAR DNA-binding protein 43, full length, His tag (TARDBP, Homo sapiens, UniProt Q13148, residues 1-414)
Method: RNA Bind-n-Seq
Molecule type: RNA
Medium: in vitro
Tested at: 20 nM
Setting: 6-mer, flanks averaged, single round
With: 150 mM LiCl
Reference: input library
Direction: higher = stronger binding
Oligonucleotide | 6-mer enrichment (R)
CGGGUG | 1.21
GGCCUG | 1.02
AUGAGG | 1.14
GUUGAA | 1.07
GAAGCU | 0.885
AACAGG | 0.891
UCUCAU | 0.888
AAGAGC | 0.903
GCCACG | 0.93
UGAAUC | 0.873
CCGGAG | 0.941
AAGGGU | 1.06
AAUCAU | 0.865
UGGGAA | 1.06
UGCCCC | 1.24
ACCCGA | 0.974
GCAGCU | 0.918
CCGAUG | 0.899
CCAGUC | 0.864
ACGGCG | 0.935
AUGCAG | 0.962
AGGGAU | 1
AGAAGG | 1.04
GUGCAU | 1.12
GCAUCG | 0.863

Study 3
Target: Centromere-binding protein 1, full length, His-tagged (CBF1, Saccharomyces cerevisiae, UniProt P17106, residues 1-351)
Chain of UniProt P17106 (whole entry, looked up): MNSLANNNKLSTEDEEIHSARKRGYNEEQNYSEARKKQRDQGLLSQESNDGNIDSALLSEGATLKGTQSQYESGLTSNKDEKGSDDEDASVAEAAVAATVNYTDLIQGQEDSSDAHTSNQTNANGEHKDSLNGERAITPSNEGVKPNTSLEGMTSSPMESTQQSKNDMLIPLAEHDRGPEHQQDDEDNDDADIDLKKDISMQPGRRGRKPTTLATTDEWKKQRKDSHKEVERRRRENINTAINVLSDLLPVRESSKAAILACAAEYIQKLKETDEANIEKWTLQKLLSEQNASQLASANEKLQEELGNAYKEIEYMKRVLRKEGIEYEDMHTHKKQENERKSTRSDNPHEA
Method: competition protein-binding microarray
Molecule type: double-stranded DNA, one strand shown
Medium: in vitro
Tested at: 2 µM
Setting: whole 60-bp probe, lowest competitor level
With: Pho4 competitor, 0.05 µM
Direction: higher = stronger binding
Oligonucleotide | fluorescence intensity [a.u.]
TGCGCAACAACTTGGCAAGTGGGTGTATGTCTAGAAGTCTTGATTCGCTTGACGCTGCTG | 84.2
TCTAGTAGGTGCGCCAGCGTGCGATGATGTGATGAGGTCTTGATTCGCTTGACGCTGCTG | 75.6
AAAGCGGTAATTTTTCACGTGGCATCACATATCTATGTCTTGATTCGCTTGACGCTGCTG | 951
CTTTGCACAATGCATTACGTGGGACCACATCCCTTTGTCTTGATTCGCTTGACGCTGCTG | 59.8
AAAGCGGTAATTTTTCACGTGCGATCAAATATCTATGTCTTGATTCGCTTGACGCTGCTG | 1220
CTTCCTTCTTTGAAACACGTTTCTTAATTGCACTTGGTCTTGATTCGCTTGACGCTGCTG | 128
GTAAGACCACAATCCATCGTGTCGGCCCCATGTCGGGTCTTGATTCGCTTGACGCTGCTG | 51.5
AACGACACCGGCACCTTCGTGACGGCCGACTAATGGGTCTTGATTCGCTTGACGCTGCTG | 64.2
AGGGTCTGATCCCTTCCCGTGGGTAGACCGATGACCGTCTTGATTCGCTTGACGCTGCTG | 63.5
TGTCGCTCTCCCAGCCACGCTCGAAGGACTTGCTGAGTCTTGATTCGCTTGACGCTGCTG | 51
TTTAGTCGATACCAACACGTGGAACAATACTCAAATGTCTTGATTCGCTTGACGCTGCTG | 723
AAGCTGAAGTATGGTGTCGTGACTCGGATTTCCGCTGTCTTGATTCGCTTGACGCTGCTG | 654
CGTTGGGCTGAAGACGACATGATAATTAAGAGAGCCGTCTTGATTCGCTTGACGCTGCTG | 68
GTCTTGTCTCATTGAAATGTGGGTGTCCCCACTTCAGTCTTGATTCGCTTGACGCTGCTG | 78.8
CATACCCAACCTTGGGTGGTGGGTGAAGATATTTGTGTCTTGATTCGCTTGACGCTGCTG | 54.1
CGTAACGTTCTGCTCATCGTGACGGTGGGAGAGCCAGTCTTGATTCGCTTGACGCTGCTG | 72.8
ATTACTAAAGCCTCTCATGTGTTCTACGCCCATTGTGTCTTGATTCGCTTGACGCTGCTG | 76.6
CTTCTGTAAATTTTTCACGTGCTCTGACGCGCCCCGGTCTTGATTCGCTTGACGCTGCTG | 987
CGTCCTAGCGATTGATGGGTGGGTGCCATGAGGAAGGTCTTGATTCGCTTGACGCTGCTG | 65.8

Study 4
Target: Histone acetyltransferase KAT6A, both winged helices, GST fusion (KAT6A, Homo sapiens, UniProt Q92794, residues 1-181)
Method: protein binding microarray
Molecule type: double-stranded DNA, one strand shown
Medium: in vitro
Tested at: not given
Setting: 8-mer, flanks averaged, mean of 2 arrays, mostly near background
Reference: not given
Direction: higher = stronger binding
Residues (chain): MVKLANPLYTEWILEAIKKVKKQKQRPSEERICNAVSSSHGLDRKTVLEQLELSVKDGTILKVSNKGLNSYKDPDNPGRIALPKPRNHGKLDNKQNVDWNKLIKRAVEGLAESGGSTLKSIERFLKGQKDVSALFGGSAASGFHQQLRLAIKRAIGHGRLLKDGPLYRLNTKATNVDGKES
Oligonucleotide | E-score
ATCGCGAA | 0.231
CCTCCTTC | -0.076
CCGCTAAA | 0.233
GAGAACTC | -0.171
TAGGGCCA | -0.197
CAATTATA | -0.225
CAATGTAG | -0.15
ATCTTAGG | -0.184
CATTCGAA | -0.118
ATCCTATA | -0.138
ATCGGGCC | 0.00818
GCCATGCA | -0.061
TACATGAA | 0.0632
AGTTTTAC | 0.044
ATAACCTG | -0.306
CATTGCGG | 0.182
GGTAACTA | 0.00091

Study 5
Target: RNA binding protein fox-1 homolog 2, RRM domain, GST-SBP tag (RBFOX2, Homo sapiens, UniProt O43251-10, residues 100-194)
Method: RNA Bind-n-Seq
Molecule type: RNA
Medium: in vitro
Tested at: 365 nM
Setting: natural RNA segment, single round, ends assumed
Reference: no-protein control
Direction: higher = stronger binding
Oligonucleotide | RBNS enrichment (R)
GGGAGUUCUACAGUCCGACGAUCAAAGGGACCUAGUUUAGCCAUUGCCCUGGAGAUGAAAUUAAUGGAGGCUCAAGGAUAGAUGAGCUCUGAGUUUCUCAGUACUCCCUCAAGACUGGACAUCUUGGUCUUUUUGGAAUUCUCGGGUGCCAA | 0.708
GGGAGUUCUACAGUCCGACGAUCAGGACCAGAGAAAGCCAGGCUGGAUCGUCACAUGCCGGGGAGCAAUGUGGAUGGCCUGGGGACUCCUGGGUUUUCUCCCUCCCGACUCCCUAAUAAACCCCGUGAACCUUUGGAAUUCUCGGGUGCCAA | 0.526
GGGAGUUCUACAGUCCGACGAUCAGGUAAAGAAACAUCGUUGAGUAGCCUACCUUGAUUUCUGUCAAGUUCAUAACCAGCUUCAUAUUUUAAAGGCUUCAGGUUUGAAAUUAAGUCAACUGCAUGCAGCUUUGUGGAAUUCUCGGGUGCCAA | 10.9
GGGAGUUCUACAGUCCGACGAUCAGUUCCAUCUCGUUAGGAAUUGGUUGAUGAGGUAUGGUACAUCUGCAUUUCUUUAACCAUAGCUGUAAUGUACCAUAUUAAAUUGUAGCCUUUUGCAUGCGGGUAUUAUAUGGAAUUCUCGGGUGCCAA | 4.19
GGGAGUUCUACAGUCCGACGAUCCCAUCUUCUUUCAUUCUGUGCUGUGGUCUGCAGUGGAAACAGCAGGCCUUUCAGCUCCUUGUGUGCCUGUUGUGUCUGGUAAUGAUGUAGUUCAGAGUGGGAUUUUUUUCUGGAAUUCUCGGGUGCCAA | 0.391
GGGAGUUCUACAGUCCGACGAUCCUGCUGGCAGCUCCUCCCCAGCAAGGCUGGGCUAGAAGGCAGCUUUAGAAGUGAGCCCCUCUAAUGCCAAGGGAGCGGCUCUGUGCCCAGGAACCCAAGGGGAGGCUAGGUGGAAUUCUCGGGUGCCAA | 0.817
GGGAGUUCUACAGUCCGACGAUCGGGAGGCUGUGGUCGCUGCCGGCCUAGGUGUCCCAGGUGCCCCGCCUUUCUCUGGGACACAGUUGGGGGCUGGCUUCUGAGGGAUUCCUUUCUCCCCUCUUUGUGUGGCCUGGAAUUCUCGGGUGCCAA | 0.585
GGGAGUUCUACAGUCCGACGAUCCCCAUGAGAUCGGACACUGUCCGCAGUCCGAUAUGCCACCAGUGAGCUAGAGCAAUCCAGGAGACUGUUUGGUAGAUGUUCACAACUUCACCAAACUUAAAUAGCAGGAGUGGAAUUCUCGGGUGCCAA | 0.366

Repeated from above (study 2):
Oligonucleotide | 6-mer enrichment (R)
CCGGAG | 0.941
AAGGGU | 1.06
AAUCAU | 0.865
UGGGAA | 1.06
UGCCCC | 1.24
ACCCGA | 0.974
GCAGCU | 0.918
